Published values pooled from the literature.
Compare with care: the assays were run in different laboratories. “And” joins repeats or separate records; there may be more than shown. ± gives the spread as reported.
UniProt Q70CQ1, sequence (whole entry, looked up): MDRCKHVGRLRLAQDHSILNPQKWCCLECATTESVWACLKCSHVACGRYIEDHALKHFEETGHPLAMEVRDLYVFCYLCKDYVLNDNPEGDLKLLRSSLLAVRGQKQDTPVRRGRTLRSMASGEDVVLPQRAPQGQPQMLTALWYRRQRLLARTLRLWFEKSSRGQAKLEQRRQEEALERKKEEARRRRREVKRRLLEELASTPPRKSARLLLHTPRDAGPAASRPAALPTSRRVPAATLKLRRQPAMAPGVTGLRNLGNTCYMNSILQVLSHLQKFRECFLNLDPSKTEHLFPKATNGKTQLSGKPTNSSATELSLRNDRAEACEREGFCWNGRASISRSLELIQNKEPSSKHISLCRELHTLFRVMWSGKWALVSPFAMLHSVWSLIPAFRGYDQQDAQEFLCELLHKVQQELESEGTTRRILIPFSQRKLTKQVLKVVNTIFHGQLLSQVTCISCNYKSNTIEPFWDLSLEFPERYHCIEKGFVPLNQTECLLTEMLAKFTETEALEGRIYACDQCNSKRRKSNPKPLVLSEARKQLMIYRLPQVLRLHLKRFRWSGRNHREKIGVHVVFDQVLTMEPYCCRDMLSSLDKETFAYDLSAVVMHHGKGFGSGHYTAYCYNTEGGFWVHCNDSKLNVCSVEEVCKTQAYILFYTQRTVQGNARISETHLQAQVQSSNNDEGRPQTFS

For `Cc1cc(C(=O)NC(C)(C)COc2cccc3c2C(N)=NS(=O)(=O)N3)cc(C)n1`, the Vz was 0.575 L/kg (Sprague-Dawley rat, female, plasma; intravenous, 1 mg/kg).
The concentration of `CCc1c(-c2ccccc2)c(-c2ccccc2)nn1-c1ccccc1-c1cccc(OCC(=O)O)c1` is reported as 37600 ng/g and 26500 ng/g (Sprague-Dawley rat, stomach; oral, 10 mg/kg, 1 h).
Under “peak to trough ratio”, `Cn1cc(-c2cn3nccc3c(-c3cnn([C@]4(CC#N)C[C@@H](C#N)C4)c3)n2)cn1` is recorded as 13.6 (healthy humans fed, plasma; oral, 30 mg once daily, day 10, geometric mean).
`COc1ccc2c(=O)n(C)c(-c3ccccc3)nc2c1` has a tissue/plasma ratio of 424 (Sprague-Dawley rat, male, stomach; oral, 30 mg/kg, 0.5 h; reference: stomach over plasma).
Under “GSH adduct formation”, `C=CC(=O)N1CCC[C@@H](n2nc(-c3ccc(Oc4ccccc4)cc3)c3c(N)ncnc32)C1` is recorded as 91% (PBS; 100 µM, 23 h, pH 7.45, 37 °C, together with: GSH 5 mM).
For `O=C(O)CN1CCCN2CCN(Cc3ccccc3)CCCN(CC1)Cc1cccc(n1)C2`, the intact complex was 96% (64Cu complex; 12 h, pH 7.4, 37 °C, together with: DOTA excess).
`C[C@@H](N)C1CCN(S(=O)(=O)c2cccc3cnccc23)CC1` — result for “participants with orthostatic hypotension”: 0% (healthy volunteers; 25 mg, fasted).
Under “patients with immune-mediated AE”, `Cc1cc(-c2nnc(N)nc2-c2ccc(F)cc2)cc(Cl)n1` is recorded as 0% (refers to: rash; post-IO other solid tumour patients; oral, 100 mg once daily, treatment-related, grade 2).
With `CN(CCC(=O)O)C(=O)c1ccc2c(c1)CC[C@@H]1[C@@H]2CC[C@]2(C)C(c3cncc(F)c3)=CC[C@@H]12` the total bilirubin was 0.8 mg/dL (premenopausal women, endometriosis pain, serum; 60 mg twice daily, visit 5, median).
The recovery of `CC(C)(C)c1ccc(O)c(CN(Cc2cc(C(C)(C)C)ccc2O)C2CCC(NC(N)=O)CC2)c1` (stereo not drawn) is reported as 99.1 ± 0.95% (mouse brain; 5 ng/g, 3 months, 4 °C, refrigerator storage).
`CCC(C)n1ncn(-c2ccc(N3CCN(c4ccc(OCC5COC(Cn6cncn6)(c6ccc(Cl)cc6Cl)O5)cc4)CC3)cc2)c1=O` (stereo not drawn) — result for “adverse event incidence”: 27% (refers to: renal and urinary disorders; healthy human participants; oral, 200 mg, compound alone cohort).
Under “subjects with adverse event”, `CC(C)(C(=O)N1CCOc2c(C#N)cncc2C1)C(F)F` is recorded as 12.5% (refers to: abdominal pain; human; oral, 10 mg once daily, 14 days, multiple ascending dose).
For `C[C@@H](Oc1ccc(S(C)(=O)=O)cc1C(=O)N1C[C@@H]2C[C@]2(c2cc(C(F)(F)F)on2)C1)C(F)(F)F`, “subjects with related abdominal pain” read 0% (human; oral plus intravenous microtracer, dose not given).
For `CCN1/C(=C/C(C)=O)Sc2ccc(F)cc21`, “systolic blood pressure change” read 111 ± 9.7% (cynomolgus monkey; oral, 10 mg/kg, 4 h post-dose; reference: pre-dose).
`C[C@@H](Nc1cc(F)cc(F)c1)c1cc(C(=O)N(C)C)cc2c(=O)cc(N3CCOCC3)oc12` — result for “related serious adverse events”: 0% (refers to: Colitis; advanced solid tumour patients; oral, dose not given, dose expansion).
The SUV of `CNc1ccc(-c2nc3ccc(O)cc3s2)cc1` [carbon-11 labelled] is reported as 0.441 ± 0.424 (ex vivo biodistribution; APP/PS1 mouse, AD model, heart; intravenous, 30 min).
`COc1cc(Nc2ncc3c(n2)-c2ccc(Cl)cc2C(c2c(F)cccc2OC)=NC3)ccc1C(=O)O` — result for “decreased lymphocyte count incidence”: 50% (patients; oral, dose not given, grade 2, any attribution, together with: pembrolizumab).
`Cc1cn(-c2cc(NC(=O)c3ccc(C)c(Nc4nccc(-c5cccnc5)n4)c3)cc(C(F)(F)F)c2)cn1`: “absorption duration (D1)” 2.41 h (population PK model, typical value; human, plasma; oral, fasted state).
For `Cn1cnc2c(F)c(Nc3ccc(Br)cc3Cl)c(C(=O)NOCCO)cc21`, “absorption rate constant” read 0.3 h⁻¹ (population PK model; human, plasma; oral, first-order absorption model, fed).
`O=C(Cc1ccc(-c2cccs2)cc1)Nc1cc(C2CC2)[nH]n1` gave a logD of 4.31 (octanol/buffer; 67 µM, pH 7.4).
`CCC[C@H](C)[C@H]1CN(C(=O)OCC)C[C@@H](c2ccc(-c3ccccc3)cc2)N1` has a logD of over 4.7 (shake-flask, 1-octanol/buffer; pH 7.4).
With `Cc1ccnc(NS(=O)(=O)c2ccc(NC(=O)c3cncc(Br)c3)cc2)n1` the logD was 1.16 (octanol/buffer; pH 7.4).
`Cc1nc2ccc(OCc3ccc(C(F)(F)F)cc3)cc2[nH]1` has a tissue concentration of 1050 ± 147 ng/g (Balb/c mouse, male, kidney; intravenous, 1 mg/kg, 3 h).
`O=C(NC[C@H]1CN(c2ccc(N3CCOCC3=O)cc2)C(=O)O1)c1ccc(Cl)s1` gave a terminal half-life of 4 ± 2.1 h (healthy mixed-breed dogs, plasma; oral, 0.5 mg/kg every 12 h for 7 days, after last dose).
With `C=CCOc1ccc([C@H]2CN(C(=O)OCC)C[C@@H](c3cc(O)c(O)c(Cl)c3)N2)cc1` the logD was over 4.7 (shake-flask, 1-octanol/buffer; pH 7.4).
`c1ccc2c(c1)ccc1ccccc12` has a log K(PDMS-water) of 3.77 ± 0.02 (fresh water; 12 (unit not given), 20 °C, SSP sampler, 100 µm).
For `Cc1cc(-c2nccc3c2ccn3CC(=O)Nc2ccc(-c3cnccn3)cn2)ccn1`, “skin disorder TEAEs” read 0% (healthy human volunteers; oral, 5 mg once daily, 14 days, multiple ascending dose).
`CCOc1c([C@H](C)n2nc(C)c3c(N)ncnc32)cc(Cl)c(F)c1[C@@H]1CNC(=O)C1` — result for “share of patients”: 0% (refers to: QTcF > 500 ms; previously treated B-cell malignancy; oral, dose not given, all doses, overall population).
`C[C@@H]1CCO[C@H]2Cn3cc(C(=O)NCc4ccc(F)cc4F)c(=O)c(O)c3C(=O)N12` has a Ctau of 1700 ng/mL (human, normal renal function, plasma; oral, dose not given, 24 h, steady state, fixed-dose combination).
The CLint of `CN(c1ncco1)c1ncnc2ccc(-c3cccc(N4CCOCC4)c3)cc12` is reported as 4.2 µL/min/mg (human liver microsomes).
For `O=C(Nc1ccc(Cl)cc1)Nc1cc(Cl)c(Cl)cc1O`, “chromatographic hydrophobicity index” read 150 (reverse phase LC, C18; acetonitrile gradient, 0.1% formic acid; converted from retention time; reference: Valko CHI standards).
For `COc1ccc2c3c([nH]c2c1)[C@H](CC(C)C)N1C(=O)[C@H](CC(=O)NC(C)C)NC(=O)[C@@H]1C3`, “kidney to body weight ratio” read 1.16% and 1.34% (wild-type mouse; oral, 100 mg/kg daily, 23 days).
For `CN1C(=O)[C@@H](NC(=O)c2nnc(Cc3ccccc3)[nH]2)COc2cccnc21`, “participants with any serious TEAE” read 0% (phase I multiple ascending dose; human, male and female; oral, 100 mg, 14 days).
The cobalt concentration of `[O]=[Co].[O]=[Co][O][Co]=[O]` is reported as 379 µg/L (rat, male, urine, 24-h collection; oral gavage, single, 300 mg/kg (220 mg Co/kg), day 2, vehicle 0.5% HPMC).
Under “trough plasma concentration”, `Cc1ccc(C)c(OCCCC(C)(C)C(=O)O)c1` is recorded as 1490 ng/mL (human, plasma; oral, dose not given, day 11 predose, median).
For `Cc1nc(-c2cnc(NC(C)C)n(C)c2=O)ccc1Oc1ccnc(-c2cnn(C)c2)c1`, the Vz was 0.69 L/kg (rat (Sprague-Dawley, male), plasma; intravenous, 1 mg/kg).
`Cc1ccc([C@@H]2O[C@H](CO)[C@@H](O)[C@H](O)[C@H]2O)cc1Cc1ccc(-c2ccc(F)cc2)s1` — result for “urinary potassium excretion change”: 3.2 mEq (Japanese type 2 diabetes patients; 100 mg, day 3, 24 h urine collection; reference: baseline).
`O=C(Nc1nc2cccc(-c3ccc(CN4CCS(=O)(=O)CC4)cc3)n2n1)C1CC1` — result for “treatment-emergent adverse events”: 8.3% (refers to: arthralgia; human rheumatoid arthritis patients; oral, 200 mg once daily, 4 weeks, regardless of relatedness).
`Cn1cncc1-c1c(F)cncc1NC(=O)c1c(N)nn2cc(F)cnc12`: “distribution rate constant k12” 0.11 h⁻¹ (two-compartment PK model; xenograft-bearing mice, plasma).
The concentration of `CN(C(=O)n1cnc(-c2ccc[n+]([O-])c2)c1)[C@H]1CC[C@H](O)CC1` is reported as 10.6 ± 1.2 ng/g (Wistar rat, pons; oral, 10 mg/kg of BIA 10-2474, 1 h, single dose).
`Fc1ccc([C@@H]2COC[C@]3(CC[C@H](c4ccccc4)CC3)N2)c(Cl)c1` gave a logD of over 4.7 (shake-flask, 1-octanol/buffer; pH 7.4).
`C=CC(=O)NC1CCN(c2ncc3ncnc(Nc4ccc(Oc5ccc6c(c5)ncn6C)c(C)c4)c3n2)CC1` gave an AUC0-tz increase of about 26% (human, male, plasma; oral, 240 mg, fed; reference: fasted).
`C[Si]1(C)O[Si](C)(C)O[Si](C)(C)O[Si](C)(C)O[Si](C)(C)O1`: “enthalpy of phase change” 16.4 kcal/mol (1-octanol/water; concentration not given).
`CN1C[C@H](COc2nccc3c(NCc4ccco4)cc(Cl)nc23)OC1=O` gave a QT interval of 193 ms (rabbit NZW female, isolated Langendorff heart; 3 µM, 15 min).
Under “trough plasma concentration”, `COc1ccccc1OCC(O)CN1CCN(CC(=O)Nc2c(C)cccc2C)CC1` (stereo not drawn) is recorded as 146 ng/mL (human, plasma; oral, 12 mg/kg/day every 6 h).
`CNCc1ccc(-c2[nH]c3cc(F)cc4c3c2CCNC4=O)cc1` — result for “patients with adverse event”: 0% (refers to: Constipation; human patients; oral, 600 mg twice daily, grade 3).
Under “total plasma concentration”, `COc1cc2c(cc1OC)CN(CCc1ccc(NC(=O)c3cccc4c(=O)c5cccc(OC)c5[nH]c34)cc1)CC2` is recorded as 1.6 ng/mL (Sprague Dawley rats, plasma; iv infusion, 0.009 mg/h/kg, 4 h).
Under “patients with adverse event”, `Cc1cc(NC2CCN(C(=O)OC3CCN(C(=O)/C=C/CN(C)C)C3)CC2)n2ncc(C(C)C)c2n1` (stereo not drawn) is recorded as 0% (Phase I dose escalation CTCAE v4.0, refers to: AST increased; patients with advanced solid tumours; dose not given, TIW dosing grade 3 or higher).
For `CN(C(=O)C(C)(C)c1cc(C(F)(F)F)cc(C(F)(F)F)c1)c1cnc(N2C[C@H]3COCCN3C[C@H]2CO)cc1-c1ccc(F)cc1[14CH3]`, the Km was 0.206 µM (pooled human liver microsomes; pH 7.4, substrate depletion).
`CCOC(=O)N1C[C@@H](c2ccc(Cl)cc2)N[C@@H](c2cccc(Br)c2)C1` gave a logD of over 4.7 (shake-flask, 1-octanol/buffer; pH 7.4).
`CC[C@H](C)[C@H](NC(=O)[C@H](CO)NC(=O)[C@H](CCCNC(=N)N)NC(C)=O)C(=O)N[C@H]1CSSC[C@@H](C(=O)N[C@H](C(N)=O)[C@@H](C)O)NC(=O)[C@H](CCCNC(=N)N)NC(=O)[C@H](Cc2c[nH]cn2)NC(=O)[C@H](C)NC(=O)CNC(=O)[C@H](Cc2c[nH]c3ccccc23)NC(=O)[C@H](CC(=O)O)NC(=O)[C@H](CCC(N)=O)NC(=O)[C@H](Cc2cccc3ccccc23)NC(=O)[C@H](C(C)C)NC1=O`: “log retention factor” 0.603 (RP-HPLC, C18; 28% acetonitrile isocratic; pH 7.4).
Under “treatment-related adverse events”, `FC(F)(F)c1ccc(CNc2ccc(Cc3c[nH]c4ncc(Cl)cc34)cn2)cn1` is recorded as 0% (refers to: Dyspepsia; patients with advanced solid tumours, non-TGCT cohort; oral, 1000 mg/day, any grade).
Under “subjects with serious adverse events”, `C=CC(=O)NC1CCN(c2ncc3ncnc(Nc4ccc(Oc5ccc6c(c5)ncn6C)c(C)c4)c3n2)CC1` is recorded as 0% (healthy male volunteers; oral, 60 mg, 2 weeks).
`COc1cccc(NC(=O)CSc2nnnn2C)c1` has a logD of 1.53 (octanol/buffer; pH 7.4).
The Ctrough of `COCCOc1cnc2ccn([C@H](C)c3nnc4c(F)cc(-c5cnn(C)c5)cn34)c(=O)c2c1` is reported as 1200 ng/mL (cancer patients, plasma; oral, 150 mg twice daily, day 28).
The Kd of `O=C(O)CNC(=O)c1ccc(S(=O)(=O)N2CCC(n3c(=O)oc4ccccc43)CC2)cc1` is reported as over 1000 µM (Ubiquitin carboxyl-terminal hydrolase 49, ZnF-UBD domain (USP49, Homo sapiens, UniProt Q70CQ1)).
The trough concentration of `C=CC(=O)Nc1cc(Nc2nccc(-c3cn(C)c4ccccc34)n2)c(OC)cc1N(C)CCN(C)C` is reported as 229 ng/mL and 212 ng/mL and 185 ng/mL and 198 ng/mL and 205 ng/mL and 201 ng/mL and 167 ng/mL and 252 ng/mL (UHPLC-MS/MS; human, plasma; oral, 80 mg once daily).
